Published values from different studies.
Several values in a cell are separate wells, animals, samples, runs or records. Numbers after ± are the reported error.
Sigma-2 receptor/TMEM97: Sigma-2 receptor/TMEM97 (Cavia porcellus, UniProt H0V073)
Oprm1: Mu-type opioid receptor (Oprm1, Mus musculus, UniProt P42866)
SIGMAR1: Sigma non-opioid intracellular receptor 1 (SIGMAR1, Cavia porcellus, UniProt Q60492)

For `c1ccc(CCN2CCCCC2)cc1`, the Ki was 0.0743 ± 0.0021 µM (Sigmar1 (Rattus norvegicus, UniProt Q9R0C9); radioligand binding; rat liver membranes; with: [3H](+)-pentazocine 5 nM).
With `CN(C)CCN(C)CCc1ccc(Cl)c(Cl)c1` the Ki was 0.0475 µM (Sigma-2 receptor/TMEM97; binding; guinea pig brain; sigma-2 site, high-affinity site, with: 3 nM [3H]DTG, (+)-pentazocine).
The Ki of `CCCCCCCC(=O)O[C@H]1/C(=C/C(=O)OC)C[C@H]2C[C@H]([C@@H](C)O)OC(=O)CCCC(=O)OCC(C)(C)[C@]1(O)O2` is reported as 0.241 µM (PRKCD (Homo sapiens, UniProt Q05655); ligand displacement, radioligand).
The Ki of `NC[C@H]1C[C@@H](C23CC4CC(CC(C4)C2)C3)Cc2c1ccc(O)c2O` (relative stereo) is reported as 0.22 ± 0.036 µM (D(1A) dopamine receptor (Sus scrofa, UniProt P50130); binding, radioligand competition binding; porcine striatal homogenate; with: 1 nM [3H]SCH-23390).
For `O=C(/C=C/c1ccoc1)N[C@@H]1CC[C@@]2(O)[C@H]3Cc4ccc(O)c5c4[C@@]2(CCN3CC2CC2)[C@H]1O5`, the Ki was 0.00032 µM (Oprm1; ligand displacement, radioligand).
For `CSC[C@H]1O[C@@H](n2cnc3c2N=CNC[C@H]3O)C[C@@H]1O`, the Ki was 8e-06 ± 4e-07 µM (MTA/SAH deaminase (Pseudomonas aeruginosa, UniProt Q9HZ64); inhibitor; pH 7.4, 25 °C, with: MTA 100 µM).
`CC(C)[C@@H](CN1CC[C@@](C)(c2cccc(O)c2)[C@@H](C)C1)NC(=O)[C@H]1Cc2ccc(O)cc2CN1` gave a Ki of 0.0167 µM (Nociceptin receptor (OPRL1, Homo sapiens, UniProt P41146); ligand displacement, radioligand).
With `CCNC(=O)[C@H]1O[C@@H](n2cnc3c(N)nc(NCCc4ccc(CCC(=O)NCCN)cc4)nc32)[C@H](O)[C@@H]1O` the Ki was 0.038 µM (ADORA3 (Homo sapiens, UniProt P0DMS8); ligand displacement, radioligand; cell membranes).
With `CCCCCCCCCCCCC/C=C/[C@@H](O)[C@H](CO)N(C)C` the Ki was 0.12 µM (SIGMAR1; ligand displacement, radioligand).
`CC(C)C[C@H](NC(=O)[C@H](CC(C)C)NC(=O)[C@H](CC(=O)O)NC(=O)[C@H](CC(C)C)NC(=O)[C@@H](NC(=O)[C@H](CCC(=O)O)NC(=O)[C@H](CO)NC(=O)[C@H](Cc1c[nH]c2ccccc12)NC(=O)[C@H](C)NC(=O)[C@@H](N)[C@@H](C)O)C(C)C)C(=O)N[C@@H](CCCNC(=N)N)C(=O)N[C@@H](CCCNC(=N)N)C(=O)NCC(=O)NCC(=O)NCC(=O)N[C@@H](Cc1ccc(C(=O)c2ccccc2)cc1)C(=O)N[C@@H](CCCCNC(=O)CCCC[C@@H]1SC[C@@H]2NC(=O)N[C@@H]21)C(N)=O` gave a Ki of 5.1 ± 0.8 µM (ATP2B4 (Homo sapiens, UniProt P23634); Ca2+-Mg2+-ATPase activity, inhibitor; erythrocyte ghosts; human erythrocyte, with: Ca2+).
`Nc1nc2c(ncn2[C@H]2C[C@H](O)[C@@H](COP(=O)(O)NP(=O)(O)OP(=O)(O)O)O2)c(=O)[nH]1` has a Ki of 0.031 ± 0.0023 µM (SAMHD1 (Homo sapiens, UniProt Q9Y3Z3); enzyme activity, inhibitor; with: dTTP 100 µM).
The Ki of `CCC(=O)C(=O)O` is reported as 1800 ± 100 µM (putA, PRODH domain (Escherichia coli, UniProt P09546); competitive inhibitor; pH 7.5, room temperature, with: L-proline).
The tracer uptake of `CN[C@@](C)(C[18F])C(=O)O` is reported as 0.9 %ID/g (MDA-MB-468 tumour model; host not given, muscle; 2 h, tumour-bearing).
For `CC1(C)Oc2cc(C(=O)N3C4CC5CC3CC(C4)O5)cc(O)c2[C@@H]2C[C@H](O)CC[C@H]21`, Ki read “no binding” (Cnr1 (Rattus norvegicus, UniProt P20272); [3H]CP-55,940 displacement; rat brain membranes; with: [3H]CP-55,940).
`CCCCCCCC(=O)Nc1ccc(C=Cc2ccc(NC(=O)CCCCCCC)cc2S(=O)(=O)O)c(S(=O)(=O)O)c1` gave a Ki of 3 µM and ~3 µM (H(+)/Cl(-) exchange transporter ClcA (clcA, Escherichia coli, UniProt P37019)).
`CN(CCc1ccc(Cl)c(Cl)c1)CCN1CCCC1` has a Ki of 0.0166 µM (Sigma-2 receptor/TMEM97; binding; guinea pig brain; sigma-2 site, high-affinity site, with: 3 nM [3H]DTG, (+)-pentazocine).
For `Nc1nc(F)nc2c1ncn2[C@@H]1O[C@H](CO)[C@@H](O)[C@@H]1O`, the Ki was 3 µM (ADORA1 (Homo sapiens, UniProt P30542); ligand displacement, radioligand; cell membranes).
`CC[C@]1(C(=O)O)C[C@H]1[C@H](N)C(=O)O.Cl` gave a Ki of 0.61 µM (kainate receptor, rat; [3H]kainate displacement; cortical synaptosomes).
`O=C(CN(C1CCCCC1)C1CCCCC1)Nc1ccc(S(=O)(=O)c2ccc(NC(=O)CN(C3CCCCC3)C3CCCCC3)cc2)cc1` has a Ki of 0.4 µM (Protease, with pVIc peptide (L3, Human adenovirus C serotype 2, UniProt P03252); competitive inhibitor, Dixon plot; human adenovirus 2).
`O=[As](O)(O)O` has a Ki of 4500 µM (Triosephosphate isomerase, glycosomal (Trypanosoma brucei brucei, UniProt P04789, I172V); inhibitor; pH 7.5, 25 °C, ionic strength 0.1, with: DHAP substrate).
`Cc1ccc(S(=O)(=O)Nc2cc(C(=O)O)cc([C@H]3CCN[C@@H]3C(=O)O)c2)cc1` (racemic) gave a Ki of 19 µM (Glutamate receptor ionotropic, kainate 1 (Rattus norvegicus, UniProt P22756); ligand displacement, radioligand; cell membranes).
The Ki of `CC[C@H](C)CCCCC(=O)N[C@@H](CCN)C(=O)N[C@H](C(=O)N[C@@H](CCN)C(=O)N[C@H]1CCNC(=O)[C@H]([C@@H](C)O)NC(=O)[C@H](CCN)NC(=O)[C@H](CCN)NC(=O)[C@H](CC(C)C)NC(=O)[C@@H](CC(C)C)NC(=O)[C@H](CCN)NC1=O)[C@@H](C)O` is reported as 3.8 ± 0.1 µM (lipopolysaccharide; binding, displacement; Pseudomonas aeruginosa).
For `N=C(N)NCCC[C@H](NC(=O)[C@H](Cc1c[nH]c2ccccc12)NC(=O)[C@H](CCCCN)NC(=O)CNC(=O)CCC(=O)N/N=C/c1ccc(/C=N/NC(=O)CCC(=O)NCC(=O)N[C@@H](CCCCN)C(=O)N[C@@H](Cc2c[nH]c3ccccc23)C(=O)N[C@@H](CCCNC(=N)N)C(N)=O)cc1)C(N)=O`, the Ki was 0.0656 ± 0.0023 µM (Tryptase beta-2 (TPSB2, Homo sapiens, UniProt P20231); non-competitive inhibitor).
The Ki of `CCCCN1C(=O)C(C=CC=CC=C2C(=O)N(c3ccc(S(=O)(=O)O)cc3)N=C2C)C(=O)N(CCCC)C1=O` is reported as 0.19 ± 0.06 µM (SLC4A1 (Homo sapiens, UniProt P02730); chloride exchange, 36Cl flux, refers to: chloride-loaded transporter; 0 °C, equilibrium binding).
`CCCC[C@H](NC=O)C(=O)N[C@@H](CC(C)C)C(=O)N[C@@H](Cc1ccccc1)C(=O)O` has a Ki of 0.067 ± 0.016 µM (FPR1 (Homo sapiens, UniProt P21462); binding, inhibitor).
With `O=C(c1ccc(O)cc1)c1c(-c2ccc(O)cc2)sc2cc(O)ccc12` the Ki was 0.00067 µM (Estrogen receptor (ESR1, Homo sapiens, UniProt P03372); ligand displacement, radioligand).
`N[C@@H](CCC(=O)O)C(=O)O` gave a Ki of 3.3 ± 0.31 µM (anandamide membrane transporter rat; [3H]anandamide uptake, non-competitive inhibitor; brain synaptosomes).
With `CCCN(CCC1(O)CC(NS(=O)(=O)c2ccccc2)C1)[C@H]1CCc2nc(N)sc2C1` (stereo in doubt) the Ki was 0.0019 µM (Drd3 (Rattus norvegicus, UniProt P19020); ligand displacement, radioligand; cell membranes).
The Ki of `COP(=O)(O)C(C)=O` is reported as 1080 µM (dxs (Escherichia coli, UniProt P77488, H299A); enzyme activity, inhibitor; enzyme 3 µM, with: D-GAP 500 µM, pyruvate 2 mM).
The Ki of `CC[C@H]1O[C@]2(C)[C@H](OC(C)=O)[C@@]1(C)O[C@@H](/C=C/C=C/C=C/c1oc(=O)cc(OC)c1C)[C@@H]2O` is reported as 0.29 ± 0.02 µM (atpD, in F1Fo complex (Escherichia coli, UniProt P0ABB4); ATP hydrolysis; Escherichia coli everted membranes; enzyme-substrate complex).
For `O=C(NC(=S)NCCCc1c[nH]cn1)c1ccccc1`, the Ki was 0.151 µM (HRH4 (Homo sapiens, UniProt Q9H3N8); ligand displacement, radioligand; cell membranes).
The Ki of `CN(C(=O)/C=C/c1ccoc1)[C@@H]1CC[C@@]2(O)[C@H]3Cc4cccc5c4[C@@]2(CCN3CC2CC2)[C@H]1O5` is reported as 0.123 µM (Oprm1; ligand displacement, radioligand).
`CCOP(=O)(COc1ccc(C[C@H](NC(=O)O[C@H]2CO[C@H]3OCC[C@H]32)[C@H](O)CN(CC(CC)CC)S(=O)(=O)c2ccc(N)cc2)cc1)OCC` has a Ki of 0.03 ± 0.01 µM (Protease (Human T-cell leukemia virus type I, UniProt Q82134, L40I)).
For `CCCCCCCSCC(=O)c1ccccc1O`, Ki read “no inhibition” (KAT8 (Homo sapiens, UniProt Q9H7Z6); enzyme activity, inhibitor; up to 400 µM, with: 4 µM acetyl-CoA, 60 µM histone substrate).
For `NC(=O)CC[C@H](N)C(=O)O`, the Ki was 0.97 ± 0.08 µM (anandamide membrane transporter, mouse; [3H]anandamide uptake, non-competitive inhibitor; mouse brain synaptosomes).
The Ki of `CCCCCCCCCCCCC/C=C/[C@H](O)[C@@H](N)CO` is reported as 8.3 µM (SIGMAR1; ligand displacement, radioligand; cell membranes).
With `CC(=O)P(=O)(O)OCc1ccccc1` the Ki was 10.4 µM (dxs (Escherichia coli, UniProt P77488); enzyme activity, inhibitor, absorbance).
With `c1ccc2sc(C3(N4CCCC4)CCCCC3)cc2c1` the Ki was 0.26 ± 0.01 µM (TPR (Trypanosoma brucei brucei, UniProt P39051); competitive inhibitor, DTNB-coupled; Trypanosoma brucei; pH 7.4, with: trypanothione disulfide).
`c1ccc(CCN2CCCCC2)cc1` gave a Ki of over 10 µM (beta adrenergic receptor, rat; binding; rat cerebral cortex; with: [3H]dihydroalprenolol 2 nM).
With `C[C@H]1CN(C[C@H]2Cc3ccccc3CN2)CC[C@@]1(C)c1cccc(O)c1` the Ki was 0.001 µM and 0.00098 µM (OPRM1 (Homo sapiens, UniProt P35372); ligand displacement, radioligand).
`O=C(/C=C/c1ccoc1)N[C@H]1CC[C@@]2(O)[C@H]3Cc4cccc5c4[C@@]2(CCN3CC2CC2)[C@H]1O5` gave a Ki of 0.0776 ± 0.0059 µM (Oprd1 (Mus musculus, UniProt P32300); binding, radioligand displacement; with: [3H]diprenorphine).
`CCCCC[C@H](O)/C=C/[C@H]1CCC(=O)[C@@H]1C/C=C\CCCC(=O)O` has a Ki of 0.00042 µM (Ptger4 (Rattus norvegicus, UniProt P43114); ligand displacement, radioligand).

Some of these lines once more:
The Ki of `CN(C(=O)/C=C/c1ccoc1)[C@@H]1CC[C@@]2(O)[C@H]3Cc4cccc5c4[C@@]2(CCN3CC2CC2)[C@H]1O5` is reported as 0.123 µM (Oprm1; ligand displacement, radioligand).
`CCOP(=O)(COc1ccc(C[C@H](NC(=O)O[C@H]2CO[C@H]3OCC[C@H]32)[C@H](O)CN(CC(CC)CC)S(=O)(=O)c2ccc(N)cc2)cc1)OCC` has a Ki of 0.03 ± 0.01 µM (Protease (Human T-cell leukemia virus type I, UniProt Q82134, L40I)).
For `CCCCCCCSCC(=O)c1ccccc1O`, Ki read “no inhibition” (KAT8 (Homo sapiens, UniProt Q9H7Z6); enzyme activity, inhibitor; up to 400 µM, with: 4 µM acetyl-CoA, 60 µM histone substrate).
For `NC(=O)CC[C@H](N)C(=O)O`, the Ki was 0.97 ± 0.08 µM (anandamide membrane transporter, mouse; [3H]anandamide uptake, non-competitive inhibitor; mouse brain synaptosomes).
